Results collected from several papers.
Lines come from different studies, so protocols differ. Converted amounts (≈) assume the structure as drawn.
Organism: Staphylococcus aureus

| SMILES | assay | system | setting | scale | quantity | value |
| --- | --- | --- | --- | --- | --- | --- |
| CC[C@H](C)[C@H](NC(=O)[C@H](CC1CCCCC1)NC(=O)[C@@H]1CCCN1C(=O)[C@@H](N)CCCN)C(=O)N[C@H](Cc1ccccc1)C(=O)N[C@@H](Cc1cn(Cc2ccccc2)cn1)C(N)=O | – | ATCC 33591, methicillin-resistant | – | – | IC50 | > 20 µg/mL |
| O=C(Oc1cccccc1=O)c1ccc(Cl)cc1 | microbial growth, broth dilution | ATCC29213 | – | – | MIC80 | 13.2 µM (≈ 3.44 µg/mL) |
| C=C(C)C(=O)NCCCCOCc1cn(CCCCNC(=O)C(=C)C)nn1 | growth, turbidity OD600 | – | 24 h | – | IC50 | > 100 µM |
| CC(C)[C@H](NC(=O)[C@H](CC1CCCCC1)NC(=O)[C@@H](Cc1c[nH]c2ccccc12)NC(=O)[C@@H](N)CCCN)C(=O)N[C@H](Cc1ccccc1)C(=O)N[C@@H](Cc1cn(Cc2ccccc2)cn1)C(N)=O | – | ATCC 33591, methicillin-resistant | – | – | IC50 | > 20 µg/mL |
| CCCCCCCCCC(=O)Oc1c(C)c(OC)c2c(c1C)OC(=O)C(CCCCCCCC)C2(O)C=Cc1ccccc1 (stereo not shown) | microbial killing, broth dilution | ATCC25923 | – | – | MBC | > 5000 µg/mL |
| CC[C@H](C)[C@H](NC(=O)[C@H](CC1CCCCC1)NC(=O)[C@@H](Cc1ccccc1)NC(=O)[C@@H](N)CCCN)C(=O)N[C@H](Cc1ccccc1)C(=O)N[C@@H](Cc1cn(Cc2ccccc2)cn1)C(N)=O | bacterial growth | ATCC 29213 | – | – | IC50 | > 20 µg/mL |
| Cc1ccc(C(=O)Sc2cccccc2=O)cc1 | microbial growth, broth dilution | ATCC29213 | – | – | MIC80 | 13.2 µM (≈ 3.38 µg/mL) |
| CC(C)C1=CC2=CCC3C(C)(C(=O)OCCC[N+](C)(C)C)CCCC3(C)C2CC1 (stereo not shown) | microbial growth, disc diffusion | ATCC29213 | 15.6 µg/disc, 24 h | – | inhibition zone | 14 mm |
| C=C(C)C(=O)NCCCCOCc1cn(CCCCNC(=O)C(=C)C)n[n+]1C | growth, turbidity OD600 | – | 24 h | – | IC50 | > 100 µM |
| COc1ccc2cc3[n+](cc2c1OC)CCc1cc2c(cc1-3)OCO2.[Cl][Fe-]([Cl])([Cl])[Cl] | – | – | 24 h, 37 °C | – | MIC50 | 60.1 µM |
| CC(CCCOC(=O)CCC[N+](C)(C)C)C1CCC2C3CCC4CC(OC(=O)CCC[N+](C)(C)C)CCC4(C)C3CC(OC(=O)CCC[N+](C)(C)C)C12C (stereo not shown) | microbial growth, disc diffusion | ATCC29213 | 125 µg/disc, 24 h | – | inhibition zone | 23 mm |
| O=C1C=CC(=O)N1CCCCCCCCCCOCc1cn(CCCCCCCCCCN2C(=O)C=CC2=O)nn1 | growth, turbidity OD600 | – | 24 h | – | IC50 | > 100 µM |
| CC[C@H](C)[C@H](NC(=O)[C@H](CCCN)NC(=O)[C@H](CC(N)=O)NC(=O)[C@H](Cc1c[nH]c2ccccc12)NC(=O)[C@H](Cc1ccccc1)NC(=O)[C@H](CCCN)NC(=O)[C@H](CCCCNC(=N)N)NC(=O)[C@H](CC(C)C)NC(=O)[C@H](Cc1c[nH]c2ccccc12)NC(=O)[C@H](CCCN)NC(=O)[C@H](CCCCNC(=N)N)NC(=O)[C@H](CC(C)C)NC(=O)CNC(C)=O)C(=O)N[C@@H](CCCN)C(=O)N[C@@H](CCCCNC(=N)N)C(N)=O | – | – | concentration not given, together with: KCl 4.5 mM | reference: no added salt | MIC fold change | 1 fold |
| CC[C@H](C)[C@H](NC(=O)[C@H](CC1CCCCC1)NC(=O)[C@@H](CC(C)C)NC(=O)[C@@H](N)CCCN)C(=O)N[C@H](Cc1ccccc1)C(=O)N[C@@H](Cc1cn(Cc2ccccc2)cn1)C(N)=O | – | ATCC 33591, methicillin-resistant | – | – | IC50 | > 20 µg/mL |
| CC(CCCOC(=O)CCC[N+](C)(C)C)C1CCC2C3CCC4CC(OC(=O)CCC[N+](C)(C)C)CCC4(C)C3CCC12C (stereo not shown) | microbial growth, disc diffusion | ATCC29213 | 31.2 µg/disc, 24 h | – | inhibition zone | 12 mm |
| C#CCOc1ccc(CN[C@@]2(C)C[C@H](O[C@H]3[C@H](Oc4c5cc6cc4Oc4ccc(cc4Cl)[C@@H](O)[C@@H](NC(=O)[C@@H](CC(C)C)NC)C(=O)N[C@@H](CC(N)=O)C(=O)N[C@H]6C(=O)N[C@H]4C(=O)N[C@H](C(=O)N[C@H](C(=O)N[C@@H](CCCNC(=N)N)C(N)=O)c6cc(O)cc(O)c6-c6cc4ccc6O)[C@H](O)c4ccc(c(Cl)c4)O5)O[C@H](CO)[C@@H](O)[C@@H]3O)O[C@@H](C)[C@H]2O)cc1OC | broth microdilution | MSSA ATCC 29213, cation-adjusted Mueller-Hinton broth | 20 to 24 h, 37 °C, 0.002% polysorbate 80 | – | MIC | 0.5 µg/mL (≈ 0.281 µM) |
| N=C(N)NCCC[C@@H]1NC(=O)[C@H](CCCNC(=N)N)NC(=O)[C@@H](CCCNC(=N)N)NC(=O)[C@@H](CCCNC(=N)N)NC(=O)[C@@H](C(c2ccccc2)c2ccccc2)NC(=O)[C@H](Cc2c[nH]c3ccccc23)NC(=O)[C@@H](C(c2ccccc2)c2ccccc2)NC1=O | – | MRSA ATCC BAA-1556 | MIC | – | time to complete killing | 3 to 4 h |
| COc1c(C)c(OC(=O)c2ccc3ccccc3c2)c(C)c(O)c1C(=O)/C=C/c1ccccc1 | microbial killing, broth dilution | ATCC25923 | – | – | MBC | > 5000 µg/mL |
| C=C(C)C(=O)NCCCCCCOCc1cn(CCCCCCNC(=O)C(=C)C)nn1 | growth, turbidity OD600 | – | 24 h | – | IC50 | > 100 µM |
| COc1cc2c(cc1OC)-c1cc3ccc(OC)c(OC)c3c[n+]1CC2.[Cl][Fe-]([Cl])([Cl])[Cl] | – | – | 24 h, 37 °C | – | MBC | > 800 µM |
| C=CC(=O)NCCCCCCCCCCOCc1cn(CCCCCCCCCCNC(=O)C=C)n[n+]1C | microbial growth, absorbance | – | 24 h | – | IC50 | 52 µM |
| CC(=O)N[C@@H](CCCCN)C(=O)N1CCC[C@H]1C(=O)N[C@H](C(=O)N[C@@H](Cc1ccccc1)C(=O)N[C@@H](CCC(N)=O)C(=O)N[C@@H](Cc1ccccc1)C(=O)N[C@@H](CC(C)C)C(=O)N[C@@H](Cc1ccccc1)C(=O)N[C@@H](Cc1c[nH]cn1)C(=O)N[C@@H](CCC(=O)O)C(N)=O)C(C)C | – | USA300, BALB/c mice, skin wound infection | topical, 100 µL twice daily, day 7 | reference: initial | unhealed wound area | 69.9% |
| CCCCCCCCCCCC(=O)Oc1c(C)c(OC)c2c(/C=C/c3ccccc3)c(CCCCCCCCCC)c(=O)oc2c1C | microbial killing, broth dilution | ATCC25923 | – | – | MBC | > 5000 µg/mL |
| CC(C)c1ccc2c(c1)CCC1C(C)(CN(CC(O)C[N+](C)(C)C)CC(O)C[N+](C)(C)C)CCCC21C (stereo not shown) | microbial growth, disc diffusion | ATCC29213 | 15.6 µg/disc, 24 h | – | inhibition zone | 7 mm |
| C=C1CN(S(=O)(=O)c2ccc([N+](=O)[O-])cc2)CC2Nc3c(F)cc(Br)cc3C12CCNS(=O)(=O)c1ccc(Cl)cc1 (stereo not shown) | – | MRSA ATCC BAA-44 | together with: amoxicillin/clavulanic acid | – | minimum resensitizing concentration | > 32 µg/mL |

Some of these lines once more:
| SMILES | assay | system | setting | scale | quantity | value |
| --- | --- | --- | --- | --- | --- | --- |
| C#CCOc1ccc(CN[C@@]2(C)C[C@H](O[C@H]3[C@H](Oc4c5cc6cc4Oc4ccc(cc4Cl)[C@@H](O)[C@@H](NC(=O)[C@@H](CC(C)C)NC)C(=O)N[C@@H](CC(N)=O)C(=O)N[C@H]6C(=O)N[C@H]4C(=O)N[C@H](C(=O)N[C@H](C(=O)N[C@@H](CCCNC(=N)N)C(N)=O)c6cc(O)cc(O)c6-c6cc4ccc6O)[C@H](O)c4ccc(c(Cl)c4)O5)O[C@H](CO)[C@@H](O)[C@@H]3O)O[C@@H](C)[C@H]2O)cc1OC | broth microdilution | MSSA ATCC 29213, cation-adjusted Mueller-Hinton broth | 20 to 24 h, 37 °C, 0.002% polysorbate 80 | – | MIC | 0.5 µg/mL (≈ 0.281 µM) |
| C=CC(=O)NCCCCCCCCCCOCc1cn(CCCCCCCCCCNC(=O)C=C)n[n+]1C | microbial growth, absorbance | – | 24 h | – | IC50 | 52 µM |
| CC[C@H](C)[C@H](NC(=O)[C@H](CC1CCCCC1)NC(=O)[C@@H](Cc1ccccc1)NC(=O)[C@@H](N)CCCN)C(=O)N[C@H](Cc1ccccc1)C(=O)N[C@@H](Cc1cn(Cc2ccccc2)cn1)C(N)=O | bacterial growth | ATCC 29213 | – | – | IC50 | > 20 µg/mL |
